Measurements pooled from the literature.
Each line is one published result; not all experiments were run side by side. ± gives the spread as reported.

Under “serum alkaline phosphatase”, O=c1c(OCc2ccccc2)c(-c2ccc([N+](=O)[O-])cc2)oc2ccccc12 is recorded as 218 ± 4.9 IU (diabetic rat; 5 mg/kg, p-nitrophenyl β-glucoside induced).
COc1ccc(C2CC(c3ccc(C)cc3)=Nc3ccccc3S2)cc1 (stereo not drawn) has a serum creatinine of 0.73 ± 0.31 mg/dL (Wistar rat, streptozotocin-induced diabetes, serum; 10 mg/kg, 28 days).
For O=c1c(OCc2ccccc2)c(-c2ccc(Cl)cc2)oc2ccccc12, “serum LDL cholesterol” read 125 ± 3.91 mg/dL (diabetic rat; 5 mg/kg, 28 days, p-nitrophenyl β-glucoside induced).
COc1ccc(C2CC(c3ccc(C)cc3)=Nc3ccccc3S2)cc1OC (stereo not drawn) has a serum creatinine of 0.71 ± 0.25 mg/dL (Wistar rat, streptozotocin-induced diabetes, serum; 10 mg/kg, 28 days).
CCCC[C@H](NC(=O)[C@@H](NC(=O)[C@H](CC(=O)O)NC(=O)[C@H](CCC(N)=O)NC(=O)[C@H](CC(C)C)NC(=O)[C@H](CC(C)C)NC(=O)[C@H](CCCN)NC(=O)[C@H](CCCNC(=N)N)NC(=O)[C@H](C)NC(=O)[C@H](CO)NC(=O)[C@H](CC(C)C)NC(=O)[C@H](CCC(N)=O)NC(=O)[C@H](CC)NC(=O)[C@H](CC(C)C)NC(=O)[C@@H](NC(=O)[C@H](CCCN)NC(=O)[C@H](CCCNC(=N)N)NC(=O)[C@H](Cc1ccc(O)cc1)NC(=O)[C@H](CO)NC(=O)[C@H](CCC(N)=O)NC(=O)[C@@H](NC(=O)[C@H](Cc1ccccc1)NC(=O)[C@@H](NC(=O)[C@H](C)NC(=O)[C@H](CC(=O)O)NC(=O)[C@@H](C)NC(=O)[C@H](Cc1ccc(O)cc1)NC)[C@@H](C)CC)[C@@H](C)O)C(C)C)[C@@H](C)CC)C(=O)N[C@@H](CC(=O)O)C(=O)N[C@@H](CCCNC(=N)N)C(=O)NCC — result for “serum GH level”: 256 ± 46 ng/mL (GH release, ELISA; male Sprague-Dawley rat, anaesthetised, serum; subcutaneous, 3 µg/kg, 15 min).
For CC(CCC(=O)NCc1ccc(C(=O)NO)cc1)C1CCC2C3C(O)CC4CC(O)CCC4(C)C3CCC12C (stereo not drawn), serum urea read “decreased” (PCK rats; oral gavage, 15 mg/kg/day, 5 months; reference: untreated).
CCCC[C@H](NC(=O)[C@@H](NC(=O)[C@H](CC(=O)O)NC(=O)[C@H](CCC(N)=O)NC(=O)[C@H](CC(C)C)NC(=O)[C@H](CC(C)C)NC(=O)[C@H](CCCN)NC(=O)[C@H](CCCNC(=N)N)NC(=O)[C@H](C)NC(=O)[C@H](CO)NC(=O)[C@H](CC(C)C)NC(=O)[C@H](CCC(N)=O)NC(=O)[C@H](CC)NC(=O)[C@H](CC(C)C)NC(=O)[C@@H](NC(=O)[C@H](CCCN)NC(=O)[C@H](CCCNC(=N)N)NC(=O)[C@H](Cc1ccc(O)cc1)NC(=O)[C@H](CO)NC(=O)[C@H](CC(N)=O)NC(=O)[C@@H](NC(=O)[C@H](Cc1ccccc1)NC(=O)[C@@H](NC(=O)[C@H](C)NC(=O)[C@H](CC(=O)O)NC(=O)[C@@H](C)NC(=O)[C@H](Cc1ccc(O)cc1)NC)[C@@H](C)CC)[C@@H](C)O)C(C)C)[C@@H](C)CC)C(=O)N[C@@H](CC(=O)O)C(=O)NCCCCNC(=N)N: “serum GH level” 41.1 ± 5.6 ng/mL (GH release, ELISA; male Sprague-Dawley rat, anaesthetised, serum; subcutaneous, 3 µg/kg, 0 min).
Under “serum total cholesterol”, Cc1ccc(-c2oc3ccccc3c(=O)c2OCc2ccccc2)cc1 is recorded as 138 ± 4.72 mg/dL (diabetic rat; 7.5 mg/kg, 28 days, p-nitrophenyl β-glucoside induced).
CCCC[C@H](NC(=O)[C@@H](NC(=O)[C@H](CC(=O)O)NC(=O)[C@H](CCC(N)=O)NC(=O)[C@H](CC(C)C)NC(=O)[C@H](CC(C)C)NC(=O)[C@H](CCCN)NC(=O)[C@H](CCCNC(=N)N)NC(=O)[C@H](C)NC(=O)[C@H](CO)NC(=O)[C@H](CC(C)C)NC(=O)[C@H](CCC(N)=O)NC(=O)[C@H](CC)NC(=O)[C@H](CC(C)C)NC(=O)[C@@H](NC(=O)[C@H](CCCN)NC(=O)[C@H](CCCNC(=N)N)NC(=O)[C@H](Cc1ccc(O)cc1)NC(=O)[C@H](CO)NC(=O)[C@H](CC(N)=O)NC(=O)[C@@H](NC(=O)[C@H](Cc1ccccc1)NC(=O)[C@@H](NC(=O)[C@H](C)NC(=O)[C@H](CC(=O)O)NC(=O)[C@@H](CC)NC(=O)CCc1ccc(O)cc1)[C@@H](C)CC)[C@@H](C)O)C(C)C)[C@@H](C)CC)C(=O)N[C@@H](CO)C(=O)N[C@@H](CCCNC(=N)N)C(=O)NCCCC(N)=O — result for “serum GH level”: 200 ± 10.7 ng/mL (GH release, ELISA; male Sprague-Dawley rat, anaesthetised, serum; subcutaneous, 3 µg/kg, 15 min).
Cc1cc(O)c(C=O)c2c1C(=O)Oc1c(CO)c(O)c3c(c1O2)C(O)OC3=O (stereo not drawn) has a serum insulin of 7.41 ± 0.2 mIU/L (streptozotocin-induced diabetic male rats, serum; 10 mg/kg, 9 weeks).
CCCC[C@H](NC(=O)[C@@H](NC(=O)[C@H](CC(=O)O)NC(=O)[C@H](CCC(N)=O)NC(=O)[C@H](CC(C)C)NC(=O)[C@H](CC(C)C)NC(=O)[C@H](CCCN)NC(=O)[C@H](CCCNC(=N)N)NC(=O)[C@H](C)NC(=O)[C@H](CO)NC(=O)[C@H](CC(C)C)NC(=O)[C@H](CCC(N)=O)NC(=O)[C@H](CC)NC(=O)[C@H](CC(C)C)NC(=O)[C@@H](NC(=O)[C@H](CCCN)NC(=O)[C@H](CCCNC(=N)N)NC(=O)[C@H](Cc1ccc(O)cc1)NC(=O)[C@H](CO)NC(=O)[C@H](CCC(N)=O)NC(=O)[C@@H](NC(=O)[C@H](Cc1c(F)c(F)c(F)c(F)c1F)NC(=O)[C@@H](NC(=O)[C@H](C)NC(=O)[C@H](CC(=O)O)NC(=O)[C@@H](C)NC(=O)[C@H](Cc1ccc(O)cc1)NC)[C@@H](C)CC)[C@@H](C)O)C(C)C)[C@@H](C)CC)C(=O)N[C@@H](CC(=O)O)C(=O)N[C@@H](CCCNC(=N)N)C(=O)NC: “serum GH level” 320 ± 32.7 ng/mL (GH release, ELISA; male Sprague-Dawley rat, anaesthetised, serum; subcutaneous, 3 µg/kg, 15 min).
O=c1c(OCc2ccccc2)c(-c2cccc([N+](=O)[O-])c2)oc2ccccc12 — result for “serum LDL cholesterol”: 128 ± 3.39 mg/dL (diabetic rat; 5 mg/kg, 28 days, p-nitrophenyl β-glucoside induced).

Repeated from above:
COc1ccc(C2CC(c3ccc(C)cc3)=Nc3ccccc3S2)cc1OC (stereo not drawn) has a serum creatinine of 0.71 ± 0.25 mg/dL (Wistar rat, streptozotocin-induced diabetes, serum; 10 mg/kg, 28 days).
